# Earlier results that unrelated publications cite.
# Lines come from different studies, so protocols differ. ± gives the spread as reported.
# EGFR L858R: Epidermal growth factor receptor (EGFR, Homo sapiens, UniProt P00533, L858R)
# Eif4e residues 28-217: Eukaryotic translation initiation factor 4E, residues 28-217 (Eif4e, Mus musculus, UniProt P63073)
# Chain of UniProt P63073 (28-217, looked up): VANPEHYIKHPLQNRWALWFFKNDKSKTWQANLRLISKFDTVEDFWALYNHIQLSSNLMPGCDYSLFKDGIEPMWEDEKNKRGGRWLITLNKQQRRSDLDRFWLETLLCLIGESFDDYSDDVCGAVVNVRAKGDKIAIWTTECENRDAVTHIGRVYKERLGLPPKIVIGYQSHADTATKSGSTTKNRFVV
# MAOB: Amine oxidase [flavin-containing] B (MAOB, Homo sapiens, UniProt P27338)
# Chain of UniProt P27338 (whole entry, looked up): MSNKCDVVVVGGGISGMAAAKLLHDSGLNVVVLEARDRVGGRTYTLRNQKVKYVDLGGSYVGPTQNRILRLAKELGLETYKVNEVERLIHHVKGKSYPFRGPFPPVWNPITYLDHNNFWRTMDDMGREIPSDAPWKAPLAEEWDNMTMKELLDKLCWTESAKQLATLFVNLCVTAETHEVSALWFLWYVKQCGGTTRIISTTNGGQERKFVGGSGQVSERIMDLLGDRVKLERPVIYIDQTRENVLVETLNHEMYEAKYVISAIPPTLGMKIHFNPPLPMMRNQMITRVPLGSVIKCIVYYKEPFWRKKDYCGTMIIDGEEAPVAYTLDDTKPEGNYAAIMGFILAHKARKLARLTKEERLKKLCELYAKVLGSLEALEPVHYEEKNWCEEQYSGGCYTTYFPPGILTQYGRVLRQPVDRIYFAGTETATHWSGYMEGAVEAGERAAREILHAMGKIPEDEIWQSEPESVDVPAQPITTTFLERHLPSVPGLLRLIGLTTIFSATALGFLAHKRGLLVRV
# rib4: 6,7-dimethyl-8-ribityllumazine synthase (rib4, Schizosaccharomyces pombe, UniProt Q9UUB1)
# Chain of UniProt Q9UUB1 (whole entry, looked up): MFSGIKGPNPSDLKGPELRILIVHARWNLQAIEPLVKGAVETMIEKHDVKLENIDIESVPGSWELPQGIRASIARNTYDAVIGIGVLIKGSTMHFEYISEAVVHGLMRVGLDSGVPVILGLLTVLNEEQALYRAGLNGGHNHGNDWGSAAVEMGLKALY
# lecA: PA-I galactophilic lectin (lecA, Pseudomonas aeruginosa, UniProt Q05097)
# Chain of UniProt Q05097 (whole entry, looked up): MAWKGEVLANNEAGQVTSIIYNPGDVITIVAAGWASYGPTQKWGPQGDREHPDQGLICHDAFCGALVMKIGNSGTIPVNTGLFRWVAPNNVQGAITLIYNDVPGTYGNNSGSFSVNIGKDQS
# Chain of UniProt P43354 (whole entry, looked up): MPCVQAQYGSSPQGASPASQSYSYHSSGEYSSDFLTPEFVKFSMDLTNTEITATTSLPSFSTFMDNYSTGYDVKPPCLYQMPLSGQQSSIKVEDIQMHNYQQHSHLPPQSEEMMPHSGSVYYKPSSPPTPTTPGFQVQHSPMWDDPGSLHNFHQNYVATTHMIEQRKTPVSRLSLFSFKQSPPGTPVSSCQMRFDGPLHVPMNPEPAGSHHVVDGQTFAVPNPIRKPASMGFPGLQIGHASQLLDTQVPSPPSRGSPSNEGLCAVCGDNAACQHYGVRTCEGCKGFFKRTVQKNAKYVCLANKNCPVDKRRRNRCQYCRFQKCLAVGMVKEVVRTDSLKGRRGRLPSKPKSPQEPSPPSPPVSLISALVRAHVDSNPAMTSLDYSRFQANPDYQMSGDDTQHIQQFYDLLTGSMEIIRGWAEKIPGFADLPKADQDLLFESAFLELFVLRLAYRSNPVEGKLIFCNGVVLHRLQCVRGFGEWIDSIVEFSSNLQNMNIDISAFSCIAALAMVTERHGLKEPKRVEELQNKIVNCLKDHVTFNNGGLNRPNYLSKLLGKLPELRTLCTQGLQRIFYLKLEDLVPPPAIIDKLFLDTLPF
# Chain of UniProt P70712 (whole entry, looked up): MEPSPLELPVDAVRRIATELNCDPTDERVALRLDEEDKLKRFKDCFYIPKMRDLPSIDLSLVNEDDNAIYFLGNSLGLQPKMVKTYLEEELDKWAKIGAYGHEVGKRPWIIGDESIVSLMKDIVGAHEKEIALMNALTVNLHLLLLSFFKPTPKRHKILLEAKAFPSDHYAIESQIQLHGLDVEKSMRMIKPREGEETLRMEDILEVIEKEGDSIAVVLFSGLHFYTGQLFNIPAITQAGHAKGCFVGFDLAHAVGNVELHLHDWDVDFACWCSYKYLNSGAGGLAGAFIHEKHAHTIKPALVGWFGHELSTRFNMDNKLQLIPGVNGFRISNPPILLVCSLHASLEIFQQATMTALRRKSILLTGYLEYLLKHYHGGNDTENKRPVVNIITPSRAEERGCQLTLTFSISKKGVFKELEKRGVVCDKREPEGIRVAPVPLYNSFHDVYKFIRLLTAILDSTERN
# Chain of UniProt P09470 (whole entry, looked up): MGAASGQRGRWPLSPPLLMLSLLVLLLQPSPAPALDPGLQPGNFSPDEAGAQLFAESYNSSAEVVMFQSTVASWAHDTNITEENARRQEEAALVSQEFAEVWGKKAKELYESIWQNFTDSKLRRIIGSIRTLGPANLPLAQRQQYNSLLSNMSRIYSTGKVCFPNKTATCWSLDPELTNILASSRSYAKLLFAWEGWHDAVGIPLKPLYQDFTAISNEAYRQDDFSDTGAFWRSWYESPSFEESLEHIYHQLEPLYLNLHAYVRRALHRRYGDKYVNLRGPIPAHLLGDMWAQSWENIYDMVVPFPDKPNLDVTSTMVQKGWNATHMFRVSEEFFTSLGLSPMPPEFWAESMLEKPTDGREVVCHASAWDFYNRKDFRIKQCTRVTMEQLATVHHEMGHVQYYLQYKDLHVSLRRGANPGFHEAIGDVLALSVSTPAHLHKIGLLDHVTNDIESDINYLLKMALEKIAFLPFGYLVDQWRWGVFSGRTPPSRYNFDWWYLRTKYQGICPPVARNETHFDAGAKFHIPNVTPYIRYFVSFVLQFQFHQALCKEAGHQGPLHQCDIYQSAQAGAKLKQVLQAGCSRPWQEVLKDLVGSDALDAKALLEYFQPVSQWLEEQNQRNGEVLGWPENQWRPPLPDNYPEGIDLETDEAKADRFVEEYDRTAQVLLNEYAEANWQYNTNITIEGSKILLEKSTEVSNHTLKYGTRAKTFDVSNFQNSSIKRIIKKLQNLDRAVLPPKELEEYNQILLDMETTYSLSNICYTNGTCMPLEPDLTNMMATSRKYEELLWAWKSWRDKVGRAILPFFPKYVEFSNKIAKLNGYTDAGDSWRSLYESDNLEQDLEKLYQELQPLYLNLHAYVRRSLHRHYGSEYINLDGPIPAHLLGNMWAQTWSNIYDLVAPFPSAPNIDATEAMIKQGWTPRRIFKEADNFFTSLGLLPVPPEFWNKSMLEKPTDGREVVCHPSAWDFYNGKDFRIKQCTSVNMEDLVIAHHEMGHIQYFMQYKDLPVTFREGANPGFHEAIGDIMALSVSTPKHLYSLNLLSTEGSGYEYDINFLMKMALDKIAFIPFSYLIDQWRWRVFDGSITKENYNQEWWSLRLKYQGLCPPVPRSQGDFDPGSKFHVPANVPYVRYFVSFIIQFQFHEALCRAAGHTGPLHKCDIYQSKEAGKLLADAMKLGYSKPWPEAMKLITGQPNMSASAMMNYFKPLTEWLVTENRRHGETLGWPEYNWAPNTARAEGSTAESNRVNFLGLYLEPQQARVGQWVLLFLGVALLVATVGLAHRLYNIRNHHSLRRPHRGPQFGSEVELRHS
# Chain of UniProt P63079 (whole entry, looked up): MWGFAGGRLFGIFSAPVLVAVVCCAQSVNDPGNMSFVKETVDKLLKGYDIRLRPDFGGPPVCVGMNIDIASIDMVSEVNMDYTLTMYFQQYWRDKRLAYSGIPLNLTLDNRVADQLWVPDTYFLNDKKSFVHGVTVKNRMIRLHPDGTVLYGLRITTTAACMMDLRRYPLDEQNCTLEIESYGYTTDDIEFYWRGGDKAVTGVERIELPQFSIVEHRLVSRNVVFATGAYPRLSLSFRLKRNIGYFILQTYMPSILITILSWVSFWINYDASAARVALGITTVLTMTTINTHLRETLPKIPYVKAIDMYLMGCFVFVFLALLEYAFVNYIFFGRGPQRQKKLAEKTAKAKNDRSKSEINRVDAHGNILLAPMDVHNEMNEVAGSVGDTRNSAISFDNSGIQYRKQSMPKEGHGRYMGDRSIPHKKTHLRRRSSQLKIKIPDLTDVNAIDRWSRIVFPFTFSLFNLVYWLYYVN
# Chain of UniProt Q16819 (whole entry, looked up): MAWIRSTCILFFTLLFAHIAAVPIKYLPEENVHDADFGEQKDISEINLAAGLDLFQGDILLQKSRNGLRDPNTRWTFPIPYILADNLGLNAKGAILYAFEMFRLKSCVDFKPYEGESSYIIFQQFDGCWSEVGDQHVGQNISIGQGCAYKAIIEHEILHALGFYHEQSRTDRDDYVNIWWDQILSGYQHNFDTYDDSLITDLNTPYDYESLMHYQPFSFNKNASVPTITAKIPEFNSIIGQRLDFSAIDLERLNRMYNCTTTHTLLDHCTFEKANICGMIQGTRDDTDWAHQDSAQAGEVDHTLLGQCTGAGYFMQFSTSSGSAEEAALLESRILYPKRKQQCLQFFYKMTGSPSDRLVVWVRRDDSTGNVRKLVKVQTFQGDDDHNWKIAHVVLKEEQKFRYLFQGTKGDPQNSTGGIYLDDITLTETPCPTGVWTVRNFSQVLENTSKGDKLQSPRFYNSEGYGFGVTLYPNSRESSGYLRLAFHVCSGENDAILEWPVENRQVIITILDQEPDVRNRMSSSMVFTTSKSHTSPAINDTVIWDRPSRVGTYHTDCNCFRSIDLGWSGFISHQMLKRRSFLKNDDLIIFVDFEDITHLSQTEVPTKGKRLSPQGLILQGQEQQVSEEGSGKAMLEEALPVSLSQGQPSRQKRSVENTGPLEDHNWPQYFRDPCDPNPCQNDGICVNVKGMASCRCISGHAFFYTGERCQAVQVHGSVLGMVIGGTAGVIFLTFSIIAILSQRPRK
# Chain of UniProt P41143 (whole entry, looked up): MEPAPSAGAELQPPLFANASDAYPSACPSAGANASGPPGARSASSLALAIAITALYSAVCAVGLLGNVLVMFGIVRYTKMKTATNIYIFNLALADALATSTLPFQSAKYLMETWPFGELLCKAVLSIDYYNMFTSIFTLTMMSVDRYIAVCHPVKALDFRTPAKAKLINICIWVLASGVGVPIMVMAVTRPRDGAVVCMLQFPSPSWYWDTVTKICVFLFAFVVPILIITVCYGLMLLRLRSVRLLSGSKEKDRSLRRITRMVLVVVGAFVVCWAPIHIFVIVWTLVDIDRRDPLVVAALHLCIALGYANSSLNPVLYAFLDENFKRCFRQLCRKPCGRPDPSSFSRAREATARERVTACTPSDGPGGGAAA
Structure (SMILES),target,test,test system,conditions,scale,endpoint,result
CCOC(=O)C(NC(=O)CN1C(=O)/C(=C/c2ccc3c(c2)OCO3)SC1=S)C(C)C (stereo not shown),α-glucosidase,enzyme activity,,200 µM,,inhibition,27 ± 2.06%
CCOC(=O)c1c(C(=O)OC)cn(CC(c2cn(C)c3ccccc23)c2cn(C)c3ccccc23)c1C,parasite topoisomerase IB,"enzyme activity, inhibitor",,concentration not given,,activity,inactive
C=CC(=O)N1CCC[C@@H](n2nc(-c3cccc4ccccc34)c3c(N)ncnc32)C1,EGFR L858R,,,,,kinact/Ki,100000 ± 60000 M⁻¹ s⁻¹
CO[C@H]1O[C@H](CNS(=O)(=O)c2c(C)cc(C)cc2C)[C@@H](O)[C@H](O)[C@@H]1O,"lecB (Pseudomonas aeruginosa, UniProt Q9HYN5)","binding, ITC",,,,−TΔS,0.4 kcal/mol
C[n+]1cn([C@@H]2O[C@H](COP(=O)([O-])OP(=O)(O)CP(=O)(O)OP(=O)(O)OC[C@H]3O[C@@H](n4cnc5c(=O)[nH]c(N)nc54)[C@H](O)[C@@H]3O)[C@@H](O)[C@H]2O)c2nc(N)nc(O)c21,Eif4e residues 28-217,"binding, fluorescence quenching titration",,pH 7.2,,association constant,48.6 µM⁻¹
COc1ccc(-n2nc3c4cc(Cl)ccc4[nH]cc-3c2=O)cc1,"Gamma-aminobutyric acid receptor subunit alpha-6/beta-3, with gamma-2 subunit (Gabra6/Gabrb3, Rattus norvegicus, UniProt P30191+P63079)","ion current, modulator",,"α6β3γ2, together with: GABA EC3-5",,maximum modulation,~2000%
CC(=O)c1c(O)cccc1OCc1ccc(Br)cc1,MAOB,,,,relative to: IC50 MAO-A over IC50 MAO-B,selectivity ratio,53
BP(=O)(OP(=O)([O-])OC[C@H]1O[C@@H](n2c[n+](C)c3c(=O)[nH]c(N)nc32)[C@H](O)[C@@H]1O)OP(=O)([O-])OC[C@H]1O[C@@H](n2c[n+](C)c3c(=O)[nH]c(N)nc32)[C@H](O)[C@@H]1O,Eif4e residues 28-217,,,"pH 7.2, 20 °C",,association constant,11.1 ± 0.2 µM⁻¹
COc1ccc([C@@]23Oc4cc(OC)cc(OC)c4[C@]2(O)[C@H](O)[C@H](C(=O)N(C)C)[C@H]3c2ccccc2)cc1,DDX3X and eIF4A1,RNA clamping binding,,,relative to: eIF4A1 over DDX3X affinity,selectivity ratio,≥ 30 fold
CC(C)C(=O)Nc1c(NC[C@H](O)[C@H](O)[C@H](O)CO)[nH]c(=O)[nH]c1=O,rib4,enzyme kinetics,,pH 7.0,lower = tighter substrate binding,Ks,1.1 ± 0.1 µM
C=CC(=O)N1CCC[C@@H](n2nc(-c3ccc4ccccc4c3)c3c(N)ncnc32)C1,EGFR L858R,,,,,kinact/Ki,1.6e+06 ± 530000 M⁻¹ s⁻¹
CC(=O)c1ccc(OCc2ccc(Br)cc2)cc1O,MAOB,,,,relative to: IC50 MAO-A over IC50 MAO-B,selectivity ratio,569
Nc1c(O)cccc1C(=O)C[C@H](N)C(=O)O,"Kynureninase (Rattus norvegicus, UniProt P70712)",substrate,,rat enzyme,,Km,5 µM
Nc1c(SC[C@H](O)[C@H](O)[C@H](O)CO)[nH]c(=O)[nH]c1=O,rib4,enzyme kinetics,,pH 7.0,,kcat,0.0283 s⁻¹
CC(Cc1nc2c(cnn2-c2ccccc2Cl)c(=O)[nH]1)C(F)(F)F (stereo not shown),"PDE9A (Homo sapiens, UniProt O76083)",binding,,,relative to: (R) over (S) enantiomer,selectivity ratio,~4 fold
O=c1[nH]c(SC[C@H](O)[C@H](O)[C@H](O)CO)c([N+](=O)[O-])c(=O)[nH]1,rib4,enzyme kinetics,,pH 7.0,,kcat,0.085 ± 0.00167 s⁻¹
COc1cc2c(cc1OC)CN(CCCCn1ccc3c(OCCF)cccc31)CC2,"Tmem97 (Rattus norvegicus, UniProt Q5U3Y7)",binding,,,relative to: Ki sigma1 over Ki sigma2,selectivity ratio,708
CCCCC[C@H](O)/C=C/C=C\C=C\C=C\[C@@H](O)[C@@H](O)CCCC(=O)O,"FPR2 (Homo sapiens, UniProt P25090)","monocyte adherence, agonist",,,,effective concentration,< 1 nM
N=C(CF)NCCC[C@H](NC(=O)c1ccc(-c2ccccc2)cc1)c1nc2ccccc2[nH]1,"PADI1 (Homo sapiens, UniProt Q9ULC6)",inhibitor,,,,kinact/KI,15 M⁻¹ s⁻¹
CCCCN(CCc1ccccc1)CCc1cccc(O)c1,"OPRD1 (Homo sapiens, UniProt P41143)",,,,relative to: KOR over OPRD1,selectivity ratio,> 200 fold
OCCn1cc(CO[C@@H]2O[C@H](CO)[C@H](O)[C@H](O)[C@H]2O)nn1,lecA,ITC,,,,–TΔS,2 kcal/mol
C[C@@H]1COCCN1c1nc(-c2cnc(N)nc2)nc2c1C[C@@H]1COCCN21,"MTOR (Homo sapiens, UniProt P42345)",,,,relative to: Ki PI3Kα over Ki target,selectivity ratio,105
CC1=C(/C=C/C(C)=C/C=C/C(C)=C/C=O)C(C)(C)CCC1,"CNGA1 (Bos taurus, UniProt Q00194)",,,,,Hill coefficient,1.4
CC(=O)N[C@@H](Cc1ccccc1)C(=O)N[C@@H](CC(=O)O)C(=O)N[C@@H](CC(N)=O)C(=O)N1CCC[C@H]1C(=O)N[C@H](C(=O)N[C@@H](Cc1ccccc1)C(=O)O)C(C)C,"LDL receptor, position 807 mutant",,,,relative to: native LDL receptor,internalization index,0.95
O=C(O[C@@H]1Cc2c(O)cc(O)cc2O[C@@H]1c1cc(O)c(O)c(O)c1)c1cc(O)c(O)c(O)c1,"serum albumin, human","binding, tryptophan fluorescence quenching",,,,association constant,0.05 µM⁻¹
CC(C)C[C@H](NC(=O)[C@@H](Cc1c[nH]c2ccccc12)NC(=O)[C@H](Cc1ccc(O)cc1)NC(=O)[C@H](CO)NC(=O)[C@H](Cc1c[nH]c2ccccc12)NC(=O)[C@H](Cc1c[nH]cn1)NC(=O)[C@@H]1CCC(=O)N1)C(=O)N[C@@H](CCCNC(=N)N)C(=O)N1CCC[C@H]1C(=O)NCC(N)=O,GnRH receptor,,cell membranes,,,binding affinity,~2 nM
CCOC(=O)C(CC)NC(=O)CN1C(=O)S/C(=C\c2ccc([N+](=O)[O-])cc2)C1=O (stereo not shown),α-glucosidase,enzyme activity,,100 µM,,inhibition,0%
CC(C)C(C)Nc1ccnc2cc(Cl)ccc12 (stereo not shown),"Nuclear receptor subfamily 4 group A member 2, ligand binding domain (Homo sapiens, UniProt P43354)",agonist,,concentration not given,relative to: DMSO,maximum activation,1.47 fold
OC[C@H]1O[C@@H](OCc2cn([C@H]3[C@H](O)[C@@H](O)[C@H](c4cn([C@H]5[C@H](O)[C@@H](O)[C@H](n6cc([C@@H]7O[C@H](CO)[C@@H](n8cc(CO[C@@H]9O[C@H](CO)[C@H](O)[C@H](O)[C@H]9O)nn8)[C@H](O)[C@H]7O)nn6)O[C@@H]5CO)nn4)O[C@@H]3CO)nn2)[C@H](O)[C@@H](O)[C@H]1O,lecA,ITC,,,,–TΔS,1.3 kcal/mol
C=CC(=O)N1CCC[C@@H](n2nc(-c3cn(C)c4ccccc34)c3c(N)ncnc32)C1,EGFR L858R,,,,,kinact,0.17 ± 0.08 min⁻¹
O=C(CCN(Cc1ccccc1)Cc1ccccc1)NO,"MEP1A (Homo sapiens, UniProt Q16819)",,,,relative to: meprin β Ki over meprin α Ki,selectivity ratio,45
CN1CCN(CC(=O)N2N=C3/C(=C/c4ccccc4)CCCC3C2c2ccccc2)CC1 (mixture of isomers),"ALOX15 (Homo sapiens, UniProt P16050)","enzyme activity, activator",,together with: arachidonic acid,,maximal activation,85%
O=C(Nc1c(-c2ccccc2)cnn1-c1ccccc1)c1ccc([N+](=O)[O-])cc1,metabotropic glutamate receptor 1 (human),receptor activity,,concentration not given,,activity,inactive
Cc1cc(C)c(S(=O)(=O)N(C)CC(=O)N(Cc2ccc(C3CCCCC3)cc2)c2ccc(C(=O)O)c(O)c2)c(C)c1,"Signal transducer and activator of transcription 5B, SH2 domain (STAT5B, Homo sapiens, UniProt P51692)",fluorescence polarization,,,relative to: STAT5B over STAT3,selectivity ratio,2 to 3 fold
CCOC(=O)C(=O)Nc1c(NC[C@H](O)[C@H](O)[C@H](O)CO)[nH]c(=O)[nH]c1=O,rib4,enzyme kinetics,,pH 7.0,lower = tighter substrate binding,Ks,1 ± 0.1 µM
Cc1cccc(C)c1NC(=O)C1CCN(Cc2ccccc2)C1 (stereo not shown),"SCN4A (Homo sapiens, UniProt P35499)","sodium current block, in vitro",,"phasic block, 10 Hz",,Hill coefficient,1.1 ± 0.1
Nc1ccccc1C(=O)N[C@@H](CO)C(=O)N[C@@H](CC(=O)O)C(=O)N[C@@H](CCCCNc1ccc([N+](=O)[O-])cc1[N+](=O)[O-])C(=O)N1CCC[C@H]1C(=O)O,"Angiotensin-converting enzyme, N-domain (Mus musculus, UniProt P09470)",substrate,,N-domain selective substrate,,Km,35 to 41 µM

# Repeated from above:
Structure (SMILES),target,test,test system,conditions,scale,endpoint,result
C[C@@H]1COCCN1c1nc(-c2cnc(N)nc2)nc2c1C[C@@H]1COCCN21,"MTOR (Homo sapiens, UniProt P42345)",,,,relative to: Ki PI3Kα over Ki target,selectivity ratio,105
CC1=C(/C=C/C(C)=C/C=C/C(C)=C/C=O)C(C)(C)CCC1,"CNGA1 (Bos taurus, UniProt Q00194)",,,,,Hill coefficient,1.4
CC(=O)N[C@@H](Cc1ccccc1)C(=O)N[C@@H](CC(=O)O)C(=O)N[C@@H](CC(N)=O)C(=O)N1CCC[C@H]1C(=O)N[C@H](C(=O)N[C@@H](Cc1ccccc1)C(=O)O)C(C)C,"LDL receptor, position 807 mutant",,,,relative to: native LDL receptor,internalization index,0.95
O=C(O[C@@H]1Cc2c(O)cc(O)cc2O[C@@H]1c1cc(O)c(O)c(O)c1)c1cc(O)c(O)c(O)c1,"serum albumin, human","binding, tryptophan fluorescence quenching",,,,association constant,0.05 µM⁻¹
CC(C)C[C@H](NC(=O)[C@@H](Cc1c[nH]c2ccccc12)NC(=O)[C@H](Cc1ccc(O)cc1)NC(=O)[C@H](CO)NC(=O)[C@H](Cc1c[nH]c2ccccc12)NC(=O)[C@H](Cc1c[nH]cn1)NC(=O)[C@@H]1CCC(=O)N1)C(=O)N[C@@H](CCCNC(=N)N)C(=O)N1CCC[C@H]1C(=O)NCC(N)=O,GnRH receptor,,cell membranes,,,binding affinity,~2 nM
CCOC(=O)C(CC)NC(=O)CN1C(=O)S/C(=C\c2ccc([N+](=O)[O-])cc2)C1=O (stereo not shown),α-glucosidase,enzyme activity,,100 µM,,inhibition,0%
